Assay results collected from several papers.
Each line is one published result; not all experiments were run side by side.
Cell line: M14
Technique: SRB

Compound	read-out	tested at	time	reference	measurement	value
CC(=O)OC[C@H]1O[C@@H](Sc2sc(C(=O)c3ccc(C)cc3)c(N)c2-c2nc3ccccc3s2)[C@H](OC(C)=O)[C@@H](OC(C)=O)[C@@H]1OC(C)=O		10 µM	48 h	untreated	growth	65.7%
CC/C=C\C/C=C\C/C=C\C/C=C\C/C=C\C/C=C\CCC(=O)Nc1ccn(C2OC(CO)C(O)C2(F)F)c(=O)n1 (stereo not drawn)	cell growth or viability				GI50	24.3 nM
COc1ccc(C2=Nn3c(NN=C4C(=O)N(Cc5ccccc5)c5ccc(Cl)cc54)nnc3SC2)cc1	cell growth or viability	10 µM			inhibition	29%
CC(=C(c1ccc(O)cc1)c1ccc(Cl)cc1)c1ccc(Cl)cc1	cell growth or viability				GI50	700 nM
O=C1Nc2ccccc2/C1=N\Nc1nnc2n1N=C(c1ccc(Cl)cc1)CS2	cell growth or viability	10 µM			inhibition	14%
CC(=O)c1cccc(NC2C(N)C(NC(=O)N(C)C)(C(C)O)C(O)C2(O)COC(=O)c2c(C)cccc2O)c1 (stereo not drawn)	cell growth or viability				GI50	100 nM
CCC(=C(c1ccc(Cl)cc1)c1ccc(OCCCN(C)C)cc1)c1ccc(OC)cc1	cell growth or viability				GI50	970 nM
CC(=O)OCC1(O)C(Nc2cccc(C(C)=O)c2)C(N)C(NC(=O)N(C)C)(C(C)OC(C)=O)C1(C)O (stereo not drawn)	cell growth or viability				GI50	680 nM
CC(=O)OC[C@H]1O[C@@H](Sc2sc(C(=O)c3ccc(Br)cc3)c(N)c2-c2nc3ccccc3s2)[C@H](OC(C)=O)[C@@H](OC(C)=O)[C@@H]1OC(C)=O		10 µM	48 h	untreated	growth	61.6%

For quick reference, copied from above:
Compound	read-out	tested at	time	reference	measurement	value
CC(=O)OC[C@H]1O[C@@H](Sc2sc(C(=O)c3ccc(C)cc3)c(N)c2-c2nc3ccccc3s2)[C@H](OC(C)=O)[C@@H](OC(C)=O)[C@@H]1OC(C)=O		10 µM	48 h	untreated	growth	65.7%
